Values quoted from earlier work, collected from citations in different studies.
Numbered parts are unrelated; values within a part may stem from several laboratories.

Block 1 — organism: Toxoplasma gondii; read-out: parasite growth; tested at: concentration not given; setting: published screen
Under activity class, `Nc1nc(N)nc(-c2cc(Cl)ccc2Cl)n1` is recorded as “inactive”.
For `O=C1CCC(N2C(=O)c3ccccc3C2=O)C(=O)N1` (stereo not shown), activity class read “inactive”.
`Nc1cc(N2CCCCC2)nc(N)[n+]1[O-]` — result for activity class: “inactive”.

Mixed results
`CNC(=O)c1ccc(Nc2ncc(C(F)(F)F)c(NCc3nccnc3N(C)S(C)(=O)=O)n2)cc1` gave an IC50 of 1100 nM (LYN; Cerep selectivity panel).
With `CC(C)(c1ccc(O)cc1)c1ccc(O)cc1` the half-life was 3 to 5 h (rat; dose not given).
`O=C(Nc1cnc(Oc2ccc(F)cc2)nc1)N1CCc2ncccc2[C@@H]1c1ccc(F)cc1` has an IC50 of 185 nM (LHCGR; cellular activity).
`CN(C)CC/C=C1/c2ccccc2Sc2ccc(Cl)cc21`: “log2 fold change” 1.34 (MCF7; microarray, refers to: TBC1D17 mRNA; concentration not given; reference: DMSO).
For `CC(=O)Nc1c(C(C)=O)c(=O)n(C)c2nc(-c3ccc(Cl)cc3Cl)c(-c3ccc(Cl)cc3)cc12`, the Ki was 799 nM (SLC6A3; MSD Pharma Taiwan panel screen).
The Cmax of `Oc1ccc(C(c2ccc(O)cc2)(C(F)(F)F)C(F)(F)F)cc1` is reported as 729 nM (refers to: free (unconjugated) compound; Sprague-Dawley rat, female; oral gavage, 110 mg/kg).
The IC50 of `CCC(=O)N[C@H]1CC[C@@H](C(=O)N(C)c2ccc(-c3nc4ccccc4o3)cc2)C1` is reported as 180 nM (FASN; cellular activity).

Some of these lines once more (mixed results):
`CNC(=O)c1ccc(Nc2ncc(C(F)(F)F)c(NCc3nccnc3N(C)S(C)(=O)=O)n2)cc1` gave an IC50 of 1100 nM (LYN; Cerep selectivity panel).
